Published values of several laboratories.
Each line is one published result; not all experiments were run side by side. ± gives the spread as reported.

SMILES = C=C1C[C@@]23CC[C@H]4[C@@](C)(CCC[C@@]4(C)C(=O)O[C@@H]4O[C@H](CO)[C@@H](O)[C@H](O)[C@H]4O)[C@@H]2CC[C@]1(O[C@@H]1O[C@H](CO[C@H]2O[C@H](CO)[C@@H](O)[C@H](O)[C@H]2O)[C@@H](O)[C@H](O)[C@H]1O[C@@H]1O[C@H](CO)[C@@H](O)[C@H](O)[C@H]1O)C3; test = HPLC; system = Britton-Robinson buffer; setting = 0.05 % w/v, time not given, pH 1.4; how to read = relative to: initial; remaining compound = 63.2 ± 1.09%
SMILES = COC(=O)c1ccc2c(c1)NC(=O)/C2=C(\Nc1ccc2c(c1)CCN2C(=O)CN1CCOCC1)c1ccccc1; system = human plasma; setting = 1 µM, 4 h, 37 °C; remaining compound = 109%
SMILES = [Ru+2].c1ccc(-c2cccc(-c3ccccn3)n2)nc1.c1cnc(-c2cnccn2)cn1.c1cnccn1; system = water; setting = 24 h, 37 °C; remaining compound = 100%
SMILES = CC1(C)C(=CC=C(C=CC2=[N+](CCC[N+](C)(C)C)c3ccc(S(=O)(=O)[O-])cc3C2(C)C)Oc2ccc(CCC(=O)[O-])cc2)N(CCC[N+](C)(C)C)c2ccc(S(=O)(=O)[O-])cc21; system = 100% serum; setting = 24 h, pH 7.4, 37 °C; remaining compound = 99%
SMILES = CCc1c2c(nc3ccc(O)cc13)-c1cc3c(c(=O)n1C2)COC(=O)[C@@]3(CC)OC(=O)[C@H](N)C(C)C; system = PBS; setting = 5 µM, 120 min, 37 °C; remaining compound = 50%
SMILES = CCCC(CCC)NC(=O)c1ccc(O)c(OC)c1; system = rat liver microsomes; setting = 1.0 µM, 10 min; remaining compound = 95%
SMILES = COc1cc(NC(C)=O)c2c(c1O)-c1c(OC)c(OC)cc3c1C(C2)N(C)CC3 (stereo not drawn); system = rat liver homogenate; setting = 0.5 µg/mL, 4 h, room temperature, short-term storage; remaining compound = 89.7 ± 3.2%
SMILES = Cc1ccc(OCC(=O)N(Cc2cccs2)c2ccn[nH]2)cc1; system = rabbit, liver microsomes; setting = 10 µM, 0 min, at NADPH addition; remaining compound = < 15%
SMILES = Oc1ccccc1-c1nn(-c2ccccc2)[n+](-c2ccccc2)n1.[Br-]; test = HPLC; system = fetal bovine serum; setting = 24 h; remaining compound = 93%
SMILES = CCC1CC2C(C)=CC3C(=O)CCCC3C=CC(C)=CC2C(=O)O1 (stereo not drawn); system = mouse plasma; setting = 10 µM, 2 h, 37 °C; remaining compound = 106%
SMILES = CO[C@@H](C(N)=O)[C@H](NC(=O)c1ccc(NC(=O)c2ccc([N+](=O)[O-])cc2)cc1)C(=O)Nc1ccc(C(=O)Nc2ccc(C(=O)Nc3ccc(C(=O)O)cc3)c(O)c2OC(C)C)cc1; system = human plasma; setting = 4 h; remaining compound = 78%
SMILES = NS(=O)(=O)Cc1ccccc1Nc1c(Cl)cccc1Cl; system = human liver microsomes; setting = 30 min, added: NADPH; remaining compound = 82 ± 1.5%
SMILES = CCCC[P+](CCCC)(CCCC)CCCC.Cc1ccc(S(=O)(=O)[N-]C(=O)NN2CC3CCCC3C2)cc1 (stereo not drawn); test = solution stability; system = PBS buffer; setting = 24 h, pH 7.4, 37 °C; remaining compound = 62.7%
SMILES = O=C(O)C(F)(F)c1ccccc1Nc1c(Cl)cccc1Cl; test = glucuronidation; system = human liver microsomes; setting = 30 min, added: UDPGA; remaining compound = 108 ± 2.8%
SMILES = C[C@@H](O)[C@H](NC(=O)[C@@H](NC(=O)[C@@H](N)CCCCN)[C@@H](C)O)C(=O)N[C@@H](CCCCN)C(=O)N[C@@H](CO)C(=O)O; test = LC-MS/MS; system = hairless mouse skin homogenate; setting = 40 µg/mL, 60 min, pH 7.4, 37 °C; remaining compound = 1.5%
SMILES = CC12CC3(C)CC(C)(C1)CC(NC(=O)NC1CCC(Oc4ccc(C(=O)O)cc4)CC1)(C2)C3 (stereo not drawn); system = human liver microsomes; setting = 1 µM, 30 min, 37 °C, 1 mg/mL microsomes, added: without NADPH; remaining compound = 95 ± 4%
SMILES = C[N+]1(CC(=O)OC2CCCCCCCCCCC2)CCCCC1; system = human liver microsomes; setting = 60 min, without NADPH; remaining compound = 88%
SMILES = CCCCCCCCCCCCCCCC(=O)OC[C@H]1O[C@@H](n2cc(F)c(N)nc2=O)CS1; system = monkey plasma; setting = 1 µM, 90 min, 37 °C; how to read = relative to: 0 min; remaining compound = 33%
